Assay results gathered from unrelated publications.
Each line is one published result; not all experiments were run side by side. ± gives the spread as reported. ≈ marks a conversion by molar mass, not a printed value. Where no end group is shown, it is not given here.
WWOX WW1 domain: WW domain-containing oxidoreductase, WW1 domain (WWOX, Homo sapiens, UniProt Q9NZC7)
Chain of UniProt Q9NZC7 (whole entry, unmodified, looked up): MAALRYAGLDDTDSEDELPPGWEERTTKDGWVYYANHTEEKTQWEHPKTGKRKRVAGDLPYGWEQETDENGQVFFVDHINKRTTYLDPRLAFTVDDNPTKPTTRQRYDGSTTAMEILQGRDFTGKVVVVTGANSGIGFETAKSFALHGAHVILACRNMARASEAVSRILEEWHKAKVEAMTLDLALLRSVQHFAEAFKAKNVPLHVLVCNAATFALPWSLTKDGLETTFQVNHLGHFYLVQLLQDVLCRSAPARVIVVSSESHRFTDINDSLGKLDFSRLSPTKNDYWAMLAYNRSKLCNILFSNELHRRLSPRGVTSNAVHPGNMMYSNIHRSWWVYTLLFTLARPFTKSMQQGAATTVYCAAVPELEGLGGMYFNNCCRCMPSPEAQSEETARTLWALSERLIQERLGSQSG
P2rx7: P2X purinoceptor 7 (P2rx7, Rattus norvegicus, UniProt Q64663)
Chain of UniProt Q64663 (whole entry, unmodified, looked up): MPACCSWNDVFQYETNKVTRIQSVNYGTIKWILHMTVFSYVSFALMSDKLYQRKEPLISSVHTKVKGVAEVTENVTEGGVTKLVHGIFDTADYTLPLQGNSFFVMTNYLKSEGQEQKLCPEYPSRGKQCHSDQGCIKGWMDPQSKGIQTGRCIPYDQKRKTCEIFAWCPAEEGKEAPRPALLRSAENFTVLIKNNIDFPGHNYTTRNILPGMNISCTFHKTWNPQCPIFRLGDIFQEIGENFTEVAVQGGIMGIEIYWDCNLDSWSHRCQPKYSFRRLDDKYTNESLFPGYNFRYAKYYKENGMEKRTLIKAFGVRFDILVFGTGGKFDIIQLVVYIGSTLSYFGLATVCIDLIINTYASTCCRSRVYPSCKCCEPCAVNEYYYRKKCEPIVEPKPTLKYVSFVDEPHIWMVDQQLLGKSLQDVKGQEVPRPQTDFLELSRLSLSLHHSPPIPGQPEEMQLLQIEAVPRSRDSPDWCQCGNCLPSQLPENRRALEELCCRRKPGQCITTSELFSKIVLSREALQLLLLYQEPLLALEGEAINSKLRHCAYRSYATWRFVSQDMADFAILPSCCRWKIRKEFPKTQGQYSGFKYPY
SCN9A: Sodium channel protein type 9 subunit alpha (SCN9A, Homo sapiens, UniProt Q15858)
Chain of UniProt Q15858 (whole entry, looked up): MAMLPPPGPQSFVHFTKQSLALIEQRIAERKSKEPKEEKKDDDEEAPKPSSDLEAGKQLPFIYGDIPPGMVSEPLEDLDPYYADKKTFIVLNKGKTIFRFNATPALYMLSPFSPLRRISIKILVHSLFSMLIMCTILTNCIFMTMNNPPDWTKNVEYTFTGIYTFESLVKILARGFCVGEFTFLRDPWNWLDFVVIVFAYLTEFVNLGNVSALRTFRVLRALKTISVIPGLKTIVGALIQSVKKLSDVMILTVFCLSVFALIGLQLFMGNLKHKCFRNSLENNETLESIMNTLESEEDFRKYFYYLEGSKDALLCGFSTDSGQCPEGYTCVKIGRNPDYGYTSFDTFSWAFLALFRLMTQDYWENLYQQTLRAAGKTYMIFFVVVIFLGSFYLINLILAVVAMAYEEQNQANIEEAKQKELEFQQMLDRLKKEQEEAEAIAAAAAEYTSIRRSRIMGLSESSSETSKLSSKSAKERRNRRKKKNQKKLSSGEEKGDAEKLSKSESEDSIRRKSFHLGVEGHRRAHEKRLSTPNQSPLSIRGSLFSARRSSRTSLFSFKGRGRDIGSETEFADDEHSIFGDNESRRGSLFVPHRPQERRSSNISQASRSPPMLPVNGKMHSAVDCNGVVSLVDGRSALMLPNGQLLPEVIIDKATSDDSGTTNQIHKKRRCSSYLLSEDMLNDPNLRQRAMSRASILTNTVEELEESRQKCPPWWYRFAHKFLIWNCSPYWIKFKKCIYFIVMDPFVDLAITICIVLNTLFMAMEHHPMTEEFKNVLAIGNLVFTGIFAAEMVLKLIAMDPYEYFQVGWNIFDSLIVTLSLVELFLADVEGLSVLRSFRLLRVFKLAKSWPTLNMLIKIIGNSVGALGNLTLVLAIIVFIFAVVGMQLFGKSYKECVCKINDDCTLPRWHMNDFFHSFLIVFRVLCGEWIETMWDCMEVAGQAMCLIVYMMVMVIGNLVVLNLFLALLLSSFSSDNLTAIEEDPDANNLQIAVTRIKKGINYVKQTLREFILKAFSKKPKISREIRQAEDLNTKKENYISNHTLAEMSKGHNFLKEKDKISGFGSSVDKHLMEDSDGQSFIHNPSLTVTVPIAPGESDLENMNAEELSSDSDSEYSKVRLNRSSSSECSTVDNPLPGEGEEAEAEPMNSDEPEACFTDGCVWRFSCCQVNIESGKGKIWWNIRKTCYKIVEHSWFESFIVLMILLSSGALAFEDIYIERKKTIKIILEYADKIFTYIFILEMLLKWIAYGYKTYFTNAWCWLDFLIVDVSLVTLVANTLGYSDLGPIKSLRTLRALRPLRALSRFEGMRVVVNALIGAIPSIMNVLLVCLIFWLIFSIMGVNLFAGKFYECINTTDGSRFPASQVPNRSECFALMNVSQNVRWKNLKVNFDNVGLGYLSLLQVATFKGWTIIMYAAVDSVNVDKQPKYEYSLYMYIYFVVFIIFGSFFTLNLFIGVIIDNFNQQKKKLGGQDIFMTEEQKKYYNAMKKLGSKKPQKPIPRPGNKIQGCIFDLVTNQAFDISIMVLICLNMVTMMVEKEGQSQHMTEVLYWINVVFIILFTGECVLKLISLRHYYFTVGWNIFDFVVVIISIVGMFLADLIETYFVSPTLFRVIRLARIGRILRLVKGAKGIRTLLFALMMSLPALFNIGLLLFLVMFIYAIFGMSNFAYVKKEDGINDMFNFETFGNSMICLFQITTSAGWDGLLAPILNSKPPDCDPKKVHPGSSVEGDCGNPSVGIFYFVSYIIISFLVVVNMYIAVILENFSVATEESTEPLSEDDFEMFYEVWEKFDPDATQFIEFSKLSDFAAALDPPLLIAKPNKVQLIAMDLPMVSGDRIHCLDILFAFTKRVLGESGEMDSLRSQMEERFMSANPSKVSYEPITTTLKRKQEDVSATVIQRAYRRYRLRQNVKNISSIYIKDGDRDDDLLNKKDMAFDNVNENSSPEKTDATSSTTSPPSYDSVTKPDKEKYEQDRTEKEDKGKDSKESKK
HBA1 with beta chain: Hemoglobin subunit alpha, with beta chain (HBA1, Homo sapiens, UniProt P69905)
Chain of UniProt P69905 (whole entry, looked up): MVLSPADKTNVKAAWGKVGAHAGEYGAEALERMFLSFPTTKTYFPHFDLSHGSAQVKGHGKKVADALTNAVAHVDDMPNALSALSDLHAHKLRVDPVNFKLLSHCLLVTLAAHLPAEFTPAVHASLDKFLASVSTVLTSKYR
MAL12: Alpha-glucosidase MAL12 (MAL12, Saccharomyces cerevisiae S288c, UniProt P53341)
Chain of UniProt P53341 (whole entry, looked up): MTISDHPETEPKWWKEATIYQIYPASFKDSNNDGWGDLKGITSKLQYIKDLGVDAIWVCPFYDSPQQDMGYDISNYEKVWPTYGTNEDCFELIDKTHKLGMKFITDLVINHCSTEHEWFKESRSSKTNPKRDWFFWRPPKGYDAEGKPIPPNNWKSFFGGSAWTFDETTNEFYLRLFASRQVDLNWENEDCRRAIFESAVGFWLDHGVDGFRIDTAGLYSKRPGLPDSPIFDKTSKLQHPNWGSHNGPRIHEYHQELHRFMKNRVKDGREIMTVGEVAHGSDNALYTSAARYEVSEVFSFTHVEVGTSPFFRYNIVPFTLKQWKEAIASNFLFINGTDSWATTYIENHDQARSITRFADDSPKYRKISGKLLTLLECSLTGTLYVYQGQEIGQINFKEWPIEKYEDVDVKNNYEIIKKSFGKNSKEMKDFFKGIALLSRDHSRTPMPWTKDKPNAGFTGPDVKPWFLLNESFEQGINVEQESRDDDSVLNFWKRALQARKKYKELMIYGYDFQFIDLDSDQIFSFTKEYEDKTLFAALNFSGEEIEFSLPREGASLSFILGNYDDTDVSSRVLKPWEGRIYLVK
B1: disulfide; chain GLIHQYCQGYWRHVPPSPREAPGAPRSPEPDQKKPRNRRHHPPDT (disulfide (positions not given here))
Chain of UniProt P50123 (whole entry, looked up): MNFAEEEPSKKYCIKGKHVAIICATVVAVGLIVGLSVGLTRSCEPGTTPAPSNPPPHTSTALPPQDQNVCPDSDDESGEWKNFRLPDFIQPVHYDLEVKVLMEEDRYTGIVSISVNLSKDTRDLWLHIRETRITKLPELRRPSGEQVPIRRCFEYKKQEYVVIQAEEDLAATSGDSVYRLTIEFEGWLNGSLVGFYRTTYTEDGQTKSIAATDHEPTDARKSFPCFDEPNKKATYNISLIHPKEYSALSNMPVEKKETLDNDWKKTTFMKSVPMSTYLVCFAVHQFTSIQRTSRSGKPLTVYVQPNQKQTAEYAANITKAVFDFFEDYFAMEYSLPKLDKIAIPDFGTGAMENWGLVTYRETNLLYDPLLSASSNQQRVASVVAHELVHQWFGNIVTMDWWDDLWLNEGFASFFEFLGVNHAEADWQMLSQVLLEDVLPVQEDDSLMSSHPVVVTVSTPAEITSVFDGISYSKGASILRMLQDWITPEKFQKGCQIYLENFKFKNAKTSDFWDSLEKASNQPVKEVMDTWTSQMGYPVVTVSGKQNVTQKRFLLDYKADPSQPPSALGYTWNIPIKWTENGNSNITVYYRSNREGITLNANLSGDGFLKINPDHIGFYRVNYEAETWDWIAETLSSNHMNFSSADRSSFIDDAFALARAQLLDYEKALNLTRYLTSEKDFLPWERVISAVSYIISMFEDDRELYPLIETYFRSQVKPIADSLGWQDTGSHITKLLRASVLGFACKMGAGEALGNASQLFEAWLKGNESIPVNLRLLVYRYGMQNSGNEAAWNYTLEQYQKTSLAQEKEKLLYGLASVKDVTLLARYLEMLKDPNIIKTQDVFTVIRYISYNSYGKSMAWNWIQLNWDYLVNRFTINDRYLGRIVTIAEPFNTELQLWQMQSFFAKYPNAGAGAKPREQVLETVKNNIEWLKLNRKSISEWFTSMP
Chain of UniProt P35372 (whole entry, looked up): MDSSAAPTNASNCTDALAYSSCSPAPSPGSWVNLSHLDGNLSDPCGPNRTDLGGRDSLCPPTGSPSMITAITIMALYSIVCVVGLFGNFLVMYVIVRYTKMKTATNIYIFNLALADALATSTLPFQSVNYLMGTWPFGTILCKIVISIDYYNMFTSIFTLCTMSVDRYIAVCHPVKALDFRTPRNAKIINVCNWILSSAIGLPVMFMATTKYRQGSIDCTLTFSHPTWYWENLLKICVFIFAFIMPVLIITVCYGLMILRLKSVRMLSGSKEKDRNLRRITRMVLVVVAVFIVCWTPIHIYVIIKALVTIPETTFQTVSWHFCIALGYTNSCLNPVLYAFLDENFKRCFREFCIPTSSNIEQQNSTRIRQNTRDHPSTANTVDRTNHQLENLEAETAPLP

Substance | target | test | test system | conditions | scale | quantity | result
CC(C)C[C@H](NC(=O)[C@@H](NC(=O)[C@@H](N)[C@@H](C)O)C(C)C)C(=O)N1CCC[C@H]1C(=O)N1CCC[C@H]1C(=O)N1CCC[C@H]1C(=O)N[C@@H](C)C(=O)N[C@@H](Cc1ccc(O)cc1)C(=O)N[C@@H](CCCNC(=N)N)C(=O)N[C@@H](Cc1c[nH]cn1)C(=O)N[C@@H](CCCNC(=N)N)C(=O)N[C@@H](CC(N)=O)C(=O)O | WWOX WW1 domain | binding to WW1 domain, isothermal titration calorimetry |  | pH 7.0, 25 °C |  | entropy term TΔS | 1.21 ± 0.37 kcal/mol
B1 | Neuropilin-2 (NRP2, Homo sapiens, UniProt O60462) | sedimentation velocity AUC |  | 2.5-fold molar excess, pH 7.5, 4 °C, 8 µM b1b2 domain |  | sedimentation coefficient, free ligand | 1.26 S
CC1=C(C(=O)OCc2ccccc2)C(c2ccc(-c3ccccc3)cc2)N(Cc2ccc(-c3nnn[nH]3)cc2)C(=S)N1 (stereo not shown) | Heat shock 70 kDa protein 1A (HSPA1A, Homo sapiens, UniProt P0DMV8) | ATPase activity, inhibitor |  | 100 µM, without Hsp40 | relative to: DMSO, negative means inhibition | fold change in activity | -1.7 fold
CSCC[C@H](NC(=O)[C@@H]1CCCN1C(=O)[C@@H](NC(=O)[C@H](Cc1ccc(O)cc1)NC(=O)[C@H](C)NC(=O)[C@@H]1CCCN1C(=O)[C@@H]1CCCN1C(=O)[C@@H]1CCCN1C(=O)[C@H](CO)NC(=O)[C@H](Cc1c[nH]cn1)NC(=O)CN)[C@@H](C)O)C(=O)N[C@@H](CO)C(=O)O | WW domain-containing oxidoreductase, WW1-WW2 tandem domains (WWOX, Homo sapiens, UniProt Q9NZC7) | binding, ITC |  | pH 7.0, 25 °C |  | ΔG | -5.13 ± 0.05 kcal/mol
BzATP | P2rx7 | ion current, agonist, two-electrode voltage clamp | Xenopus laevis oocytes | 10 µM |  | deactivation time constant | 18 ± 1.6 s
COc1ccc(CNC(=O)c2cccc(N3C(=O)c4ccccc4C3=O)c2)cc1 | D(2) dopamine receptor (DRD2, Homo sapiens, UniProt P14416) | calcium mobilization, antagonist | HEK293 T-REx D2 Gqi5 | up to 77 µM |  | AC50 | inactive
CC(=O)N[C@@H]1[C@@H](O)[C@H](O[C@@H]2O[C@H](CO)[C@@H](O[C@@H]3O[C@H](CO[C@H]4O[C@H](CO[C@H]5O[C@H](CO)[C@@H](O)[C@H](O)[C@@H]5O)[C@@H](O)[C@H](O[C@H]5O[C@H](CO)[C@@H](O)[C@H](O)[C@@H]5O)[C@@H]4O)[C@@H](O)[C@H](O[C@H]4O[C@H](CO)[C@@H](O)[C@H](O)[C@@H]4O)[C@@H]3O)[C@H](O)[C@H]2NC(C)=O)[C@@H](CO)O[C@H]1NC(=O)C[C@H](N)C(=O)O | NT1 (Nicotiana tabacum, UniProt Q94EW1) | glycan binding, glycan array |  | with: Alexa 488-labelled lectin 150 µg/mL |  | fluorescence | 18900 RFU
CCCNC(C)C(=O)Nc1c(C)csc1C(=O)OCC(C)C (stereo not shown) | SCN9A | cell membrane chromatography |  |  | higher = stronger binding | capacity factor k′ | 4.4
O=Cc1ccc(COC(=O)c2ccccc2)o1 | HBA1 with beta chain | refers to: haemoglobin A adduct | human normal whole blood | 2000 µM, 24 h, hematocrit 30% |  | peak modification | 21%
Cc1nc2ccccc2nc1N/N=C/c1ccc(O)cc1 | Metabotropic glutamate receptor 4 (GRM4, Homo sapiens, UniProt Q14833) | positive allosteric modulator | CHO cells with Gqi5 | with: glutamate EC20 | relative to: glutamate maximum | Emax | 141%
COC(=O)c1scc(C)c1NC(=O)C(C)N1CCN(C)C(C)C1 (stereo not shown) | SCN9A | cell membrane chromatography |  |  | higher = stronger binding | capacity factor k′ | 74.2
O=C[C@H](O)[C@@H](O)[C@@H](O)[C@H](O)CO | PA-I galactophilic lectin (lecA, Pseudomonas aeruginosa, UniProt Q05097) | hemagglutination, inhibitor | rabbit erythrocytes | 30 min, 4 °C |  | MIC | 3.12 mM (≈ 563 µg/mL)
CC(C)C[C@@H](N)[C@H](O)C(=O)N[C@H](C(=O)N[C@H](C(=O)N[C@@H](CC(=O)O)C(=O)O)C(C)C)C(C)C | Glutamyl aminopeptidase (Enpep, Rattus norvegicus, UniProt P50123) | inhibitor, MALDI-TOF MS | isolated rat glomeruli | 100 µM, 60 min, 37 °C, with: ANG-I 1 µM |  | ANG-(2-10) formation | 11.6 ± 1.7 pg/glomerulus
CCCCC/C=C\C/C=C\CCCCCCCC(=O)O | Fatty-acyl-AMP ligase ecdI (ecdI, Aspergillus rugulosus, UniProt K0E2F3) | substrate |  | ~40 µM, 30 min, pH 7.0, ambient, with: holo-EcdA-M1 10 µM, ATP 5 mM |  | acyl loading of EcdA-M1 | ~30%
O=c1n(CCCN2CCN(c3cccc(Cl)c3)CC2)nc2ccccn12 | Mu-type opioid receptor (OPRM1, Homo sapiens, UniProt P35372) | binding, radioligand competition | recombinant cells | extrapolated, unreliable |  | Ki | 15.4 µM
COc1cc2c(=O)c(OC)c(-c3ccccc3)oc2c(O)c1OC | MAL12 | enzyme activity, inhibitor, absorbance |  | 50 µM |  | inhibition | 49.1%

Substance | target | test | test system | conditions | scale | quantity | result
O=C(O)c1ccccc1Nc1cccc(C(F)(F)F)c1 | Transient receptor potential cation channel subfamily V member 3 (Trpv3, Mus musculus, UniProt Q8K424) | ion current, two-electrode voltage clamp | Xenopus oocytes | 100 µM, +100 mV, with: 2-APB 100 µM |  | inhibition | 57%
KACESRCTKLEYDPR | human IgE | peptide microarray | peptide, walnut-allergic patient sera | concentration not given, 16 h, 4 °C |  | patients with IgE binding | 42%
O=c1c(O)c(-c2ccc(O)c(O)c2)oc2cc(O)ccc12 | Kcnh1, Δ2–173 (Mus musculus, UniProt Q60603) | ion current, inside-out patch clamp |  | 30 µM, amino-terminal deletion mutant |  | activation V1/2 | -39.4 mV
CC(C)=CC[C@@H](O)C1=CC(=O)c2c(O)ccc(O)c2C1=O | Alpha-synuclein, oligomers (SNCA, Homo sapiens, UniProt P37840) | oligomer-vesicle binding, FIDA |  | 5 µM, with: 150 nM oligomers, 50 µM DOPG liposomes | relative to: untreated | reduction in bound oligomers | 15 to 20%
COc1c(O)cc(O)c2c(=O)cc(-c3ccc(O)cc3)oc12 | MAL12 | enzyme activity, inhibitor |  | 250 µM |  | inhibition | > 99%
Nc1ncnc2c1ncn2[C@@H]1O[C@H](COP(=O)(O)OP(=O)(O)OP(=O)(O)O)[C@@H](O)[C@H]1O | P2rx7 | ion current, whole-cell patch clamp | HEK293, transfected | with: after agonist washout, Ca2+ medium |  | decay time constant τ2 | 2.1 ± 0.2 s
CC(C)OCc1ccc(C=O)o1 | HBA1 with beta chain | refers to: haemoglobin A adduct | human normal whole blood | 2 mM, 24 h, hematocrit 30% |  | peak modification | 15.8%
COc1ccc(NC(=O)N2CCN(c3ccnc(Nc4ccc(Cl)cc4)n3)[C@@H](C)C2)cc1 | MAL12 | enzyme activity, inhibitor | Saccharomyces cerevisiae | with: p-nitrophenyl glucoside substrate | relative to: S over R enantiomer | activity ratio | ~3 fold
CSc1ccc(/C=C2/C(C)=C(CC(=O)O)c3cc(F)ccc32)cc1 | Dual specificity calcium/calmodulin-dependent 3',5'-cyclic nucleotide phosphodiesterase 1B (Homo sapiens, UniProt Q01064) | cGMP hydrolysis, inhibitor |  | up to 200 µM |  | IC50 | inactive
CCCCCCCCC(=O)N[C@H]1CN(C)C1=O | N-acylethanolamine-hydrolyzing acid amidase (NAAA, Homo sapiens, UniProt Q02083) | enzyme activity, inhibitor, fluorogenic PAMCA hydrolysis |  | pH 4.5, with: 5 µM PAMCA |  | IC50 | inactive
COc1c(-c2ccc(O)cc2)oc2c(OC)c(O)cc(O)c2c1=O | MAL12 | enzyme activity, p-nitrophenyl glucoside substrate |  | 10 µM, series 250 to 10 µM |  | inhibition | > 50%
COc1ccc(C=NN=c2sc(C(=O)c3ccc(Cl)cc3)c(C)n2N=Cc2ccc(OC)cc2)cc1 | Albumin (ALB, Bos taurus, UniProt P02769) | fluorescence quenching | phosphate-buffered saline | pH 7.4, 298 K, with: bovine serum albumin 13 µM |  | binding constant | 186000 M⁻¹
CC[C@H](C)[C@H](NC(=O)[C@@H]1CCCN1C(=O)[C@@H]1CCCN1C(=O)[C@@H]1CCCN1C(=O)[C@@H](NC(=O)[C@H](CC(N)=O)NC(=O)[C@@H](N)Cc1ccccc1)[C@@H](C)CC)C(=O)N[C@@H](Cc1ccc(O)cc1)C(=O)N[C@H](C(=O)N[C@@H](CO)C(=O)N[C@@H](CCCNC(=N)N)C(=O)N[C@@H](C)C(=O)O)[C@@H](C)O | WWOX WW1 domain | binding, ITC |  | pH 7.0, 25 °C |  | ΔG | -4.67 ± 0.05 kcal/mol
CCCN1CCN(C(C)C(=O)Nc2c(C)csc2C(=O)OC)CC1 (stereo not shown) | SCN9A | cell membrane chromatography |  |  | higher = stronger binding | capacity factor k′ | 6
COc1ccc(OCC2c3cc(OC)c(OC)cc3CCN2C(=O)c2cccc(Cl)c2)cc1 (stereo not shown) | Glutamate receptor ionotropic, NMDA 2D, with NR1 (Rattus norvegicus, UniProt Q62645) | outside-out patch clamp |  | 10 µM, with: GluN1 co-expressed |  | open time constant 2 | 0.63 ± 0.06 ms

Repeated from above:
Substance | target | test | test system | conditions | scale | quantity | result
O=c1n(CCCN2CCN(c3cccc(Cl)c3)CC2)nc2ccccn12 | Mu-type opioid receptor (OPRM1, Homo sapiens, UniProt P35372) | binding, radioligand competition | recombinant cells | extrapolated, unreliable |  | Ki | 15.4 µM
COc1cc2c(=O)c(OC)c(-c3ccccc3)oc2c(O)c1OC | MAL12 | enzyme activity, inhibitor, absorbance |  | 50 µM |  | inhibition | 49.1%
O=C(O)c1ccccc1Nc1cccc(C(F)(F)F)c1 | Transient receptor potential cation channel subfamily V member 3 (Trpv3, Mus musculus, UniProt Q8K424) | ion current, two-electrode voltage clamp | Xenopus oocytes | 100 µM, +100 mV, with: 2-APB 100 µM |  | inhibition | 57%
KACESRCTKLEYDPR | human IgE | peptide microarray | peptide, walnut-allergic patient sera | concentration not given, 16 h, 4 °C |  | patients with IgE binding | 42%
O=c1c(O)c(-c2ccc(O)c(O)c2)oc2cc(O)ccc12 | Kcnh1, Δ2–173 (Mus musculus, UniProt Q60603) | ion current, inside-out patch clamp |  | 30 µM, amino-terminal deletion mutant |  | activation V1/2 | -39.4 mV
